Assay results gathered from unrelated publications.
Numbered parts are unrelated; each lists some results of a single study.

Block 1
Target: Sal-like protein 4, full length isoform A (SALL4, Homo sapiens, UniProt Q9UJQ4, residues 1-1053)
Chain of UniProt Q9UJQ4 (whole entry, looked up): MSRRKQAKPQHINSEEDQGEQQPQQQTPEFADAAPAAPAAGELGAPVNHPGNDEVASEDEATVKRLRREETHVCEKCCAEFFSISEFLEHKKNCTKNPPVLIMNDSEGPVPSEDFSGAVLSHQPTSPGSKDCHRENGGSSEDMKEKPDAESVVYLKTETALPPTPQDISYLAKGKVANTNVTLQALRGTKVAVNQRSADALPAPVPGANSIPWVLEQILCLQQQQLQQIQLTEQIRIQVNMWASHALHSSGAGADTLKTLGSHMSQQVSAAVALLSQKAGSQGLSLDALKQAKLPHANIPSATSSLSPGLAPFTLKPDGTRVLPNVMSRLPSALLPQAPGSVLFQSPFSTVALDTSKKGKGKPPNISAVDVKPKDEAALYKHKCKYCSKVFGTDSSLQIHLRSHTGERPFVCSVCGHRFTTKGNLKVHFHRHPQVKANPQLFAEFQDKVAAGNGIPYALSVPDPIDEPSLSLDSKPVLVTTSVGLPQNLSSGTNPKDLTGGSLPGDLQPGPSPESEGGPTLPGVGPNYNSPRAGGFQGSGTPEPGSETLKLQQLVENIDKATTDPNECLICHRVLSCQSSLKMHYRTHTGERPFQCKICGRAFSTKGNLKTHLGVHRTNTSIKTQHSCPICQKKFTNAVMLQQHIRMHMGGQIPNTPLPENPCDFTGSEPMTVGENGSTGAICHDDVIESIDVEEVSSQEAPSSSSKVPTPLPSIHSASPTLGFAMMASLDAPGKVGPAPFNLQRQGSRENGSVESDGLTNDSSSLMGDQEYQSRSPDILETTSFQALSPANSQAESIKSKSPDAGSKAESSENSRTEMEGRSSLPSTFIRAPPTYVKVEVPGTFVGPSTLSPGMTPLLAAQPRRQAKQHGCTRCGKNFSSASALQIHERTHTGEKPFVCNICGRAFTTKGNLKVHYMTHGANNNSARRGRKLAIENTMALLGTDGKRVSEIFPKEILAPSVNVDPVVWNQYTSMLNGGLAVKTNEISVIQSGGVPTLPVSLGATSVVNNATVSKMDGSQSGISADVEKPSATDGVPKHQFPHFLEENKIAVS
Technique: universal PBM
Form: double-stranded DNA, one strand shown
Matrix: in vitro
Concentration: 600 nM
Notes: 8-mer, flanks averaged, mean of replicates
Reading: higher = stronger binding
| Sequence | E-score |
| --- | --- |
| CGTTATGC | 0.173 |
| CTCTCGCA | -0.112 |
| CCCCTGCG | -0.253 |
| ACTGGAGA | -0.135 |
| AGGACTCC | -0.265 |
| CACAAGCA | -0.0317 |
| TCAAGTCA | 0.101 |
| AAGAGCTA | 0.0694 |
| AATCCAAT | 0.151 |
| CCATACCG | -0.125 |
| CTACGGGA | -0.228 |
| GCCATAGA | -0.0916 |
| TGAGTTAA | 0.123 |
| CTCAGGGA | -0.319 |
| AGCGTCAT | -0.0181 |
| ACCAGGCG | -0.36 |
| TGAGGGAA | 0.0354 |
| GTAGGACA | 0.0595 |
| GATGTTAC | 0.114 |
| CAACAACC | -0.136 |
| ACCTGAAT | 0.208 |
| ACGAGGAA | 0.0264 |

Block 2
Target: Histone acetyltransferase KAT6A, both winged helices, GST fusion (KAT6A, Homo sapiens, UniProt Q92794, residues 1-181)
Technique: protein binding microarray
Form: double-stranded DNA, one strand shown
Matrix: in vitro
Concentration: not given
Notes: 8-mer, flanks averaged, mean of 2 arrays, mostly near background
Baseline: not given
Reading: higher = stronger binding
Target sequence (chain): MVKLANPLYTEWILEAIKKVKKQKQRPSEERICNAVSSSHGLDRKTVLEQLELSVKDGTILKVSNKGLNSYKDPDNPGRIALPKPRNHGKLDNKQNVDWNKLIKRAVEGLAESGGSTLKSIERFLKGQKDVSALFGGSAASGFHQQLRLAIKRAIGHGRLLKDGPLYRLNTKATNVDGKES
| Sequence | E-score |
| --- | --- |
| CATTTAAA | 0.0375 |
| CTCCCTTC | -0.314 |
| CCATAATA | -0.114 |
| CGATATAA | -0.0452 |
| AGTGAGTC | -0.113 |
| CGTATCCA | -0.0944 |
| CGCCTACG | 0.178 |
| TCATTCAA | -0.0209 |
| TCATGTCA | -0.0387 |
| ATCGATAA | 0.0533 |
| ATCCGCTC | 0.218 |
| AAGAGCTT | -0.0497 |
| CTCGTCCA | -0.0243 |
| ACGCAGGA | 0.0249 |
| ATCCAGCG | 0.181 |
| AGGTTTCA | -0.12 |
| CCTGAAAC | 0.0755 |
| ATCAGGCG | 0.0662 |
| TACCAAAA | -0.00939 |
| CTACACTC | -0.0421 |
| GTGCGTAA | 0.121 |
| CGTAATCC | 0.0824 |
| CCCGCTAA | 0.233 |
| TGAAAACA | 0.0585 |
| TACTTTCA | -0.0765 |

Block 3
Target: RNA binding protein fox-1 homolog 2, RRM domain, GST-SBP tag (RBFOX2, Homo sapiens, UniProt O43251-10, residues 100-194)
Technique: RNA Bind-n-Seq
Form: RNA
Matrix: in vitro
Concentration: 365 nM
Notes: natural RNA segment, single round, ends assumed
Baseline: no-protein control
Reading: higher = stronger binding
Shared flanks, not repeated: GGGAGUUCUACAGUCCGACGAUC … UGGAAUUCUCGGGUGCCAA
Residues (chain): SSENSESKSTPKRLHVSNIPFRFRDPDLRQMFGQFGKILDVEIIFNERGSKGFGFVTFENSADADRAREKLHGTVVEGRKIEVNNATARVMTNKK
| Sequence | RBNS enrichment (R) |
| --- | --- |
| AAAGUCAGUGGGAACGUGACUGCCCCAACUCCUGGAAGCUGUGUCCUUGCACCUGCAUCCGUAGUUCCCUGAAAACCCAGAGAGGAAUCAGACUUCACACUGCAAGAGCC | 0.493 |
| AGAUGCUGCCCACAAAUGCUCCUGCUAUGUAACAGGUGCUCAAUAAAUGUAAAUGUAUAAGCACUCGAAUCAGCUUGCUGACAGGACCUUAUGGUCCAGGGUAGCUGGAG | 0.449 |
| ACUGGCGUUGCUUGUGACAGCCCUGGGGCUGAGGCCUGCACCUGGGCCUUGGCAACCAGAUUUCUUUCUUUGGAGUUUGAAAAGCUGUCUCCUGGCCGCAUGGGGUGAGC | 0.843 |
| UCAGUGGACAGGGCAUCUGUUACCCUGAGACCUGUGGCAGACACGUCUUGUUUUCAUUUGAUUUUUGUUAAGAGUGCAGUAUUGCAGAGUCUAGAGGAAUUUUUGUUUCC | 0.954 |
| CCUUGAUGAUUUAUCAGGCAUGAGAGUAGCAGACAGGAUUGCCUUGAGAAACACACAGACAACAACGGUGGUGAACACAUUUCCCUUUCUUGAUACCACCCAGAAAGUCU | 0.572 |
| UCAUAAAUACAUAACAACCCUCAAAAGUAUAUAGGUACUUUGUCUGAGAAACAUUGAAAGCAGGUUAAAUGUUUUGUAACUUUGAAAUACAAAGUCUAAUGCAUAAGCAG | 0.594 |
| CCCGUGGCGGAAGCUGGUUUUGCAAGGACUGUGUAAGCUGUAUGCGUUCUAGCUGUAUGCGUUCUGUAGUCUUUUCUUAGGUGGGUAACAUUUUCAAUAACGCGCGCACA | 0.61 |
| UGGAAAGGUGUUGGCGCUGAUGUAGCUCAUGGAAGGAUCAGACUGGGAACCACAGAGGAAGGAUGAGGUGGGAUGUGGAGGUCAGAGCAUCUCACGAGAGUCCCUCAGGC | 1.02 |
| UUUAAUUCCCCCACCCCACCCUCUUUCUUUUGGUGGCUUCCACCACCCUUAAUGGUGACAGACUCCUGGGCCUGCCACCUUGGACUUCCCUUAGGCUCACAGUUCAGAUC | 0.362 |
| CGUUAAAUUUUGUUUGUAUUAAGCACUUUUAAUUUUAUCCUUCCUAAAAAUAGUUUAUUGUAUCUGACAAGAAACUUACUUAACCAUUGUGUCCUUCCCAUCUUUUUUGU | 0.631 |
| UUGGGUAUAUACCCAGUAAUGGGAUGGCUGGGUCAAAUGGUAUUUCUAGUUCUAGAUCCCUGAGGAAUCGCCACACUGACUUCCACAAUGGUUAAACUAAAGAGCUUCUG | 0.325 |
| AUCUCUCCAGCAACAAUAACCUAAGAUGUCUAUAGACAUUAGACCAUGUCUCCAUAAGACAGGCCCACUAGAAACACCGUUCAGAACCAUAGAGAAGCCAUGGUUUCUGC | 0.53 |

Block 4
Target: Ras GTPase-activating protein-binding protein 1, C-terminal RGG region (G3BP1, Homo sapiens, UniProt Q13283)
Chain of UniProt Q13283 (whole entry, looked up): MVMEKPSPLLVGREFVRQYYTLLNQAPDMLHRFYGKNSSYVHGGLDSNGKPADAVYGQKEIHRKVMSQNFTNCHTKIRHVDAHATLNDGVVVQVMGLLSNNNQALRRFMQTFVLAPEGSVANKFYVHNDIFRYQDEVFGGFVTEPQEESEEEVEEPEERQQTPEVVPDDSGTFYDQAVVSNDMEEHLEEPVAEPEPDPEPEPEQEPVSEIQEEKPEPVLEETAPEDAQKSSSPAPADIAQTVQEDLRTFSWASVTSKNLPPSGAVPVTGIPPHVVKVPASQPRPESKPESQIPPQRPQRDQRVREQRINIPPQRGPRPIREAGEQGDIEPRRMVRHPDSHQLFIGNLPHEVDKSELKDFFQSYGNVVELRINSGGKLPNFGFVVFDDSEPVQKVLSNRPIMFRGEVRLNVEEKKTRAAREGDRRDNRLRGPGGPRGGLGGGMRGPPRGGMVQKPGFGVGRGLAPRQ
Technique: RNA Bind-n-Seq
Form: RNA
Matrix: in vitro
Concentration: 1 µM
Notes: whole 134-nt RNA, ends assumed
With: 150 mM KCl
Baseline: input library
Reading: higher = stronger binding
Shared flanks, not repeated: GGGAGUUCUACAGUCCGACGAUC … UGGAAUUCUCGGGUGUCAAGG
| Sequence | log2 enrichment |
| --- | --- |
| UCCUUCCUUUUUUUGUCUUAAACAUAGGACAUGGAUUUGAUUGACAUACUUUGGAGGCAAGAUAUAGAUCUUGGAGUAAGUCGAGAAGUA | -1.07 |
| AGUCCUGUGCUACACAUCGUAUGUACCGAAUCAAACCCCCAAAUUUUUAAACCCAAAAAAGUAUUAUGUUACGCCGUUCGGAUCUGCACU | -0.943 |
| ACCAUGCAGGUGGGCAUCUUUGGGAAGUGGGGCAAGGGGGGGAUAGGGAGGGGGGUAACACUUUGGGAAAAGGUGGUCCCAGGUCGUUUC | -1.65 |
| CAAGUCCUGUGCUACACAUCGUAUGUACCGAAUCGGGAAAGGGGAAAGGAAAGGGGAAAGUAUUAUGUUACGCCGUUCGGAUCUGCACUU | 0.187 |
| GCAGGAAGUAAAAACAAAUGGAAAUGCUUCGGAUAGUGGCAGGGGUGGGGGUUGCUAAGGAAAGGGUGGGAUGGGAGUGGGUAAAGAGUC | 1.67 |
| UGGCCCUGGUGGCAUGCGGGGAGGAAGAGGUGGCCUCAUGGAUCGUGGUGGUCCCGGUGGAAUGUUCAGAGGUGGCCGGGGUGGAGACAG | 3.52 |
| UCAAGUCCUGUGCUACACAUCGUAUGUACCGAAUCGGGCCCGGGCCCGGCCCGGAAAGUAUUAUGUUACGCCGUUCGGAUCUGCACUUCC | -1.42 |
| CUCAAGUCCUGUGCUACACAUCGUAUGUACCGAAUCGGGGAGGGGAGGGAGGGAAAGUAUUAUGUUACGCCGUUCGGAUCUGCACUUCCA | 2.49 |
| UCAAGUCCUGUGCUACACAUCGUAUGUACCGAAUCGGAAAAAGGAAAAAGGAGGAAAGUAUUAUGUUACGCCGUUCGGAUCUGCACUUCC | -1.35 |
| UGGCCCUGGUGGCAAGCGGGGAGGAAGAGGUGGCCUCAUGGAUCGUGGUGGUCCCGGUGGAAUGUUCAGAGGUGGCCGUGGUGGAGACAG | 1.94 |

Repeated from above (block 1):
| Sequence | E-score |
| --- | --- |
| ACGAGGAA | 0.0264 |
| AGGACTCC | -0.265 |
| ACCTGAAT | 0.208 |
| TCAAGTCA | 0.101 |
| CCCCTGCG | -0.253 |
| GATGTTAC | 0.114 |
| CTCTCGCA | -0.112 |
